Results from different studies.
Medium: plasma

`CCCCCCCCCCCCCCCC(=O)N[C@@H](CCC(=O)NCCCC[C@H](NC(=O)[C@H](C)NC(=O)[C@H](C)NC(=O)[C@H](CCC(N)=O)NC(=O)CNC(=O)[C@H](CCC(=O)O)NC(=O)[C@H](CC(C)C)NC(=O)[C@H](Cc1ccc(O)cc1)NC(=O)[C@H](CO)NC(=O)[C@H](CO)NC(=O)[C@@H](NC(=O)[C@H](CC(=O)O)NC(=O)[C@H](CO)NC(=O)[C@@H](NC(=O)[C@H](Cc1ccccc1)NC(=O)[C@@H](NC(=O)CNC(=O)[C@H](CCC(=O)O)NC(=O)[C@H](C)NC(=O)[C@@H](N)Cc1cnc[nH]1)[C@@H](C)O)[C@@H](C)O)C(C)C)C(=O)N[C@@H](CCC(=O)O)C(=O)N[C@@H](Cc1ccccc1)C(=O)N[C@H](C(=O)N[C@@H](C)C(=O)N[C@@H](Cc1c[nH]c2ccccc12)C(=O)N[C@@H](CC(C)C)C(=O)N[C@H](C(=O)N[C@@H](CCCNC(=N)N)C(=O)NCC(=O)N[C@@H](CCCNC(=N)N)C(=O)NCC(=O)O)C(C)C)[C@@H](C)CC)C(=O)O` has a Cmax ratio of 112% (healthy humans; relative to: compound over Victoza).
`O=C(CCc1ccc(CNC(C(=O)OC2CCCC2)C2CCCCC2)cn1)NO` (stereo not shown) has a Cmax of 103 ng/mL (human; oral, 20 mg once daily, day 1, geometric mean).
`Cn1c(=O)oc2ccc(-c3ccc(CC(C#N)NC(=O)C4CNCCCO4)c(F)c3)cc21` (stereo not shown) has a Cmax of 58.6 ng/mL (human; 10 mg once daily, day 28, geometric mean).
`CCc1c2c(nc3ccc(O)cc13)-c1cc3c(c(=O)n1C2)COC(=O)[C@]3(O)CC` has a Cmax of 182 ng/mL (human patients; intravenous, 100 mg/m^2 of parent drug).
For `O=C(O)c1cccc(S(=O)(=O)Nc2ccccc2)c1`, “Cmax metabolic ratio” read 0.071 (human, severe liver dysfunction; intravenous, 400 mg/m^2 belinostat, cycle 1 day -7, geometric mean; relative to: metabolite over belinostat).
For `CN1CCC[C@]1(C)/C=C/S(=O)(=O)NC(=O)Nc1c2c(cc3c1CCC3)CCC2`, “Cmax after first dose” read 2000 ng/mL (human; oral, 12.5 mg twice daily, day 14, multiple ascending dose).
`O=C(O)/C=C/c1cccc(S(=O)(=O)Nc2ccccc2)c1`: “Cmax metabolic ratio” 0.0666 (human, mild liver dysfunction; intravenous, 400 mg/m^2 belinostat, cycle 1 day -7, geometric mean; relative to: metabolite over belinostat).
With `CCc1cc(Nc2nc(-c3ccc(-n4cnc(C)c4)c(F)c3)cs2)c(C)cc1C` the Cmax was 1610 ng/mL (human, both sexes; oral, 400 mg, day 1, multiple dose, geometric mean).
For `NC(=O)/C=C/c1cccc(S(=O)(=O)Nc2ccccc2)c1`, “Cmax metabolic ratio” read 0.0768 (human, moderate liver dysfunction; intravenous, 400 mg/m^2 belinostat, cycle 1 day -7, geometric mean; relative to: metabolite over belinostat).
Under “Cmax dose ratio”, `CCOc1ccc(Cc2cc(C3OC(SC)C(O)C(O)C3OC3OC(C(=O)O)C(O)C(O)C3O)ccc2Cl)cc1` (stereo not shown) is recorded as ~2.4 fold (human; oral, 400 mg once daily, sotagliflozin, day 8; relative to: 200 mg dose).

A few entries again:
For `NC(=O)/C=C/c1cccc(S(=O)(=O)Nc2ccccc2)c1`, “Cmax metabolic ratio” read 0.0768 (human, moderate liver dysfunction; intravenous, 400 mg/m^2 belinostat, cycle 1 day -7, geometric mean; relative to: metabolite over belinostat).
